Results of several laboratories.
Lines come from different studies, so protocols differ. Several values in a cell are separate wells, animals, samples, runs or records. Numbers after ± are the reported error.
Cell line: HEK-293T

CC[S+]([O-])c1nc(-c2ccccc2)cc(C(F)(F)F)n1 (stereo not drawn)  toxicity (ATPlite, CytoTox; up to 60 µM): not toxic
CN(C/C=C/C(=O)N1CCC[C@@H](n2nc(-c3ccc(Oc4ccccc4)cc3)c3c(N)ncnc32)C1)CCCNC(=O)CNc1cccc2c1C(=O)N(C1CCC(=O)NC1=O)C2=O (stereo partly drawn)  intracellular accumulation coefficient: 0.023
O=C(Nc1ccccc1OS(=O)(=O)c1ccc(F)cc1)c1ccc2ncccc2c1  viability (MTT; up to 100 µM): not toxic
CN(CCCNC(=O)CNc1cccc2c1C(=O)N(C1CCC(=O)NC1=O)C2=O)CCCC(=O)N1CCC[C@@H](n2nc(-c3ccc(Oc4ccccc4)cc3)c3c(N)ncnc32)C1 (stereo partly drawn)  intracellular accumulation coefficient: 0.0037
COc1ccc(C[C@H](NC(=O)[C@H](C)NC(=O)CN2CCOCC2)C(=O)N[C@@H](Cc2ccccc2)C(=O)C2(C)CO2)cc1 (stereo in doubt)  viability (CCK-8; 100 µM): > 95%
COc1cc(/C=C/C=C2\SC(=S)NC2=O)cc(OC)c1O  viability (CellTiter-Glo; 20 µM, 24 h, unit not given; reference: untreated): 0.969 and 1.02
CS(=O)(=O)C1(CNCc2cccc3cccnc23)CC1  cytotoxicity (bright-field microscopy; concentration not given, overnight): not toxic
CCCC(C(=O)O)c1c(C)nc2ccc(Cl)cc2c1-c1ccccc1 (stereo not drawn)  CC50: 34.3 ± 4.19 µM
Cc1ccc(S(=O)(=O)Oc2ccc(NC(=O)c3cnccn3)cc2)cc1  viability (MTT; up to 100 µM): not toxic

Excerpt of the above:
COc1ccc(C[C@H](NC(=O)[C@H](C)NC(=O)CN2CCOCC2)C(=O)N[C@@H](Cc2ccccc2)C(=O)C2(C)CO2)cc1 (stereo in doubt)  viability (CCK-8; 100 µM): > 95%
